Assay results from different studies.
Parts stem from different laboratories: compare values within a part only. Several values in a cell are separate wells, animals, samples, runs or records.

Set 1 — organism: Arabidopsis thaliana; strain: Col-0
SMILES: C=CCN1C(=O)C(O)(C(=O)O)Oc2cc(F)ccc21 (stereo not shown)
tested at | notes | hypocotyl length
100 µg/mL | seed germination, single repetition | 1.37 cm and 1.35 cm and 1.36 cm and 1.32 cm
12.5 µg/mL | seed germination, single repetition | 1.8 cm and 1.78 cm and 1.82 cm and 1.87 cm and 1.79 cm
25 µg/mL | seed germination, single repetition | 1.78 cm and 1.67 cm and 1.71 cm and 1.69 cm and 1.65 cm
3.125 µg/mL | seed germination, single repetition | 2.07 cm and 2.09 cm and 2.1 cm and 2.03 cm
25 µg/mL | seed germination, repetition mean | 1.71 cm

Set 2 — species: Crbn I391V mouse, MC-38 tumour
SMILES: Cn1cc(-c2cccc(CN3CCC4(CC3)COc3c4ccc4c3CN([C@H]3CCC(=O)NC3=O)C4=O)c2)cn1
route | dose | time | notes | together with | body weight change
 | 30 mg/kg | day 29 |  | anti-LAG3 antibody 10 mg/kg weekly | -0.4% and -4.2% and -7.3% and 0% and 2.5%
oral, daily | 30 mg/kg | day 8 | anti-PD1 combination study |  | -0.7% and 1.1% and -1% and 3.4%
 | 30 mg/kg | day 4 |  | anti-LAG3 antibody 10 mg/kg weekly | -5.1% and -2.5% and -6.2% and -0.8% and -3.2%
oral, daily | 30 mg/kg | day 33 | anti-PD1 combination study |  | 13.1% and 17.8% and -3.7% and 1.7% and 10.2%
 | 30 mg/kg | day 27 |  | anti-LAG3 antibody 10 mg/kg weekly | -3.8% and -0.4% and 1.6% and -3.4% and 4.9%
 | 30 mg/kg | day 6 |  | anti-LAG3 antibody 10 mg/kg weekly | -4.5% and -3.8% and -6.9% and 0% and 4.1%
oral, daily | 30 mg/kg | day 28 | anti-PD1 combination study |  | 3.7% and 13% and -0.7% and 8.6% and -4%
oral, daily | 30 mg/kg | day 5 | anti-PD1 combination study |  | 3.9% and 3.1% and 1.1% and 5.3% and 3%
oral | 30 mg/kg once daily | day 1 |  |  | 0%
 | 30 mg/kg | day 8 |  | anti-LAG3 antibody 10 mg/kg weekly | -3.7% and 3.1% and -4.6% and -2.5%
oral | 30 mg/kg once daily | day 18 |  |  | -2% and -3.8% and -0.5% and 0.4% and -1.4%
oral, daily | 30 mg/kg | day 25 | anti-PD1 combination study |  | 2.4% and 0% and -6% and -0.7% and 6.1% and 3.7% and 3%
oral, daily | 30 mg/kg | day 19 | anti-PD1 combination study |  | 2.5% and 1% and 5.6% and 4.2% and -4.7%
oral | 30 mg/kg once daily | day 10 |  |  | -5% and 5% and -8.1% and -2.3% and -5.7%

Set 3 — organism: Escherichia coli; observed: microbial growth; time: 16 h
SMILES | MIC [µg/mL]
CCCCC[C@@H](O)CC(=O)N[C@@H]1C(=O)N[C@H](CCCNC(=N)N)C(=O)N[C@@H](CO)C(=O)NCC(=O)N(C)[C@H](Cc2ccccc2)C(=O)N[C@@H](CC(C)C)C(=O)N[C@H](CCCNC(=N)N)C(=O)N[C@@H](CCC(=O)O)C(=O)N[C@H](CCC(N)=O)C(=O)N[C@H](Cc2c[nH]c3ccccc23)C(=O)N[C@@H]([C@@H](C)CC)C(=O)N[C@@H]([C@@H](C)O)C(=O)O[C@@H]1C | > 64
CCCCC[C@@H]1CC(=O)N[C@@H](CO)C(=O)N[C@H](CC(N)=O)C(=O)N[C@@H](CO)C(=O)NCC(=O)N(C)[C@H](Cc2ccccc2)C(=O)N[C@@H](CC(C)C)C(=O)N[C@H](CCCN)C(=O)N[C@@H](CCC(=O)O)C(=O)N[C@H](CC(N)=O)C(=O)N[C@H](Cc2c[nH]c3ccccc23)C(=O)N[C@H](CCCN)C(=O)N(C)[C@@H](C(C)C)C(=O)O1 | > 64
CCCCC[C@@H]1CC(=O)N[C@@H](C(C)C)C(=O)N[C@H](CCCNC(=N)N)C(=O)N[C@@H](CO)C(=O)NCC(=O)N(C)[C@H](Cc2ccccc2)C(=O)N[C@@H](CC(C)C)C(=O)N[C@H](CCCNC(=N)N)C(=O)N[C@@H](CCC(=O)O)C(=O)N[C@H](C(C)C)C(=O)N[C@H](Cc2c[nH]c3ccccc23)C(=O)NCCCC(=O)O1 | > 64
CCCCC[C@@H](O)CC(=O)N[C@H]1COC(=O)[C@H](CO)NC(=O)[C@H](Cc2ccccc2)NC(=O)[C@@H](Cc2c[nH]c3ccccc23)NC(=O)[C@@H](C(C)O)NC(=O)[C@H](CC(N)=O)NC(=O)[C@@H](C(C)C)NC(=O)[C@H](CC(C)C)NC(=O)[C@@H](Cc2ccc(O)cc2)N(C)C(=O)CNC(=O)[C@H](CO)NC(=O)[C@@H](CC(N)=O)NC1=O (stereo partly shown) | > 64
CCCCC[C@@H](O)CC(=O)N[C@H]1COC(=O)[C@H](CO)NC(=O)CNC(=O)[C@H]([C@@H](C)O)NC(=O)[C@H](Cc2ccccc2)NC(=O)[C@@H](Cc2c[nH]c3ccccc23)NC(=O)[C@@H]([C@H](C)O)NC(=O)[C@H](CC(N)=O)NC(=O)[C@@H]([C@H](C)O)NC(=O)[C@H](CC(C)C)NC(=O)[C@@H](Cc2c[nH]c3ccccc23)N(C)C(=O)CNC(=O)[C@H](CO)NC(=O)[C@@H](CO)NC1=O | > 64

Set 4 — method: modified Racine scale; species: C57BL/6J mice, male; route: intracerebroventricular; dose: 100 nmol; reading: direction not given
Structure (SMILES): N=C(N)NCCCCCCN1CCC23c4c5ccc(O)c4OC2c2nc4ccccc4cc2CC3(O)C1C5 (stereo not shown)
time | seizure score
50 min | 0
60 min | 0
80 min | 0
10 min | 0
45 min | 0
35 min | 0
70 min | 0

Repeated from above (set 2):
route | dose | time | notes | together with | body weight change
 | 30 mg/kg | day 8 |  | anti-LAG3 antibody 10 mg/kg weekly | -3.7% and 3.1% and -4.6% and -2.5%
oral | 30 mg/kg once daily | day 18 |  |  | -2% and -3.8% and -0.5% and 0.4% and -1.4%
oral, daily | 30 mg/kg | day 25 | anti-PD1 combination study |  | 2.4% and 0% and -6% and -0.7% and 6.1% and 3.7% and 3%
oral, daily | 30 mg/kg | day 19 | anti-PD1 combination study |  | 2.5% and 1% and 5.6% and 4.2% and -4.7%
oral | 30 mg/kg once daily | day 10 |  |  | -5% and 5% and -8.1% and -2.3% and -5.7%
